Published values from different studies.
Compare with care: the assays were run in different laboratories. Numbers after ± are the reported error.
GRPR: Gastrin-releasing peptide receptor (GRPR, Homo sapiens, UniProt P30550)
UniProt P30550, sequence (whole entry, looked up): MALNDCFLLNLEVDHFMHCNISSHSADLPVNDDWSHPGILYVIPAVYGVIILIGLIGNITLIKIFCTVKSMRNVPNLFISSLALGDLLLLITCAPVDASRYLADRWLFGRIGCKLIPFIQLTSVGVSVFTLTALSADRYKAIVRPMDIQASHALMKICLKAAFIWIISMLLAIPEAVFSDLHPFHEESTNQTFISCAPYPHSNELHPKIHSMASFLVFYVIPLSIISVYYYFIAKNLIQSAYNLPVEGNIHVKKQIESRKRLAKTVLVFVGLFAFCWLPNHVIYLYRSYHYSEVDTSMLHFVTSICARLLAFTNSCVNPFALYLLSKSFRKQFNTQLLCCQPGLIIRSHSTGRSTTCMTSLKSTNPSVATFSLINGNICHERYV
FFAR2: Free fatty acid receptor 2 (FFAR2, Homo sapiens, UniProt O15552)
UniProt O15552, sequence (whole entry, looked up): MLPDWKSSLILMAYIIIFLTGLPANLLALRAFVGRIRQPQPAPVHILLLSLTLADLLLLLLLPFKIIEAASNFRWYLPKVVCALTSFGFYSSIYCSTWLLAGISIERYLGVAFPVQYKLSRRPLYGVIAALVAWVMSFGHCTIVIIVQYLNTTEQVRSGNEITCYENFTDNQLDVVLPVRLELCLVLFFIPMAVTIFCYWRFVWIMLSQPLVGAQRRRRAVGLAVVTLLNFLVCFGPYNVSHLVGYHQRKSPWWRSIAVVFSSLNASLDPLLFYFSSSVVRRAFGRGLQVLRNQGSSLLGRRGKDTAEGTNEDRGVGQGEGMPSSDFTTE
Sctr: Sctr (Rattus norvegicus, UniProt P23811)
UniProt P23811, sequence (whole entry, looked up): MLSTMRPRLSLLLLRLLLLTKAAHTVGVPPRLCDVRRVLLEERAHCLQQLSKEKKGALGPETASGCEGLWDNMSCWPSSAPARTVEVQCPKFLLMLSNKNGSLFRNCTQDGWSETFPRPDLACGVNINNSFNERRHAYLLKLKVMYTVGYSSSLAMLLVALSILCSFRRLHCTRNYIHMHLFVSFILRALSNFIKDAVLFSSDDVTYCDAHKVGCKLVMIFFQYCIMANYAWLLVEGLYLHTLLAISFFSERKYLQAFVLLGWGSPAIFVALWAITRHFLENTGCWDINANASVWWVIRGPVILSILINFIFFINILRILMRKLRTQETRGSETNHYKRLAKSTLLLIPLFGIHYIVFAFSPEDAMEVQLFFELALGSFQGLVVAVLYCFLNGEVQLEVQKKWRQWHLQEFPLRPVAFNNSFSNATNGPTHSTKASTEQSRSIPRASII
AVPR2: Vasopressin V2 receptor (AVPR2, Homo sapiens, UniProt P30518)
UniProt P30518, sequence (whole entry, looked up): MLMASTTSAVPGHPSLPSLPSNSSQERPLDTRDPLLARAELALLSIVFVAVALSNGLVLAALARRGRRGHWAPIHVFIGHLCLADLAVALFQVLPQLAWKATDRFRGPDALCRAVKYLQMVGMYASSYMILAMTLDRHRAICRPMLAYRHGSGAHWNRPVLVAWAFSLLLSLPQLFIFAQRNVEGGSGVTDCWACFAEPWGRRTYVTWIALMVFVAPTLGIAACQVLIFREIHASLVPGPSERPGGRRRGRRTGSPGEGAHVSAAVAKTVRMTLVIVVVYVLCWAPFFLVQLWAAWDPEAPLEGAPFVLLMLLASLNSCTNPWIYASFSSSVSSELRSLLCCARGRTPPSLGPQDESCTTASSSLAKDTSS
UniProt Q60755, sequence (whole entry, unmodified, looked up): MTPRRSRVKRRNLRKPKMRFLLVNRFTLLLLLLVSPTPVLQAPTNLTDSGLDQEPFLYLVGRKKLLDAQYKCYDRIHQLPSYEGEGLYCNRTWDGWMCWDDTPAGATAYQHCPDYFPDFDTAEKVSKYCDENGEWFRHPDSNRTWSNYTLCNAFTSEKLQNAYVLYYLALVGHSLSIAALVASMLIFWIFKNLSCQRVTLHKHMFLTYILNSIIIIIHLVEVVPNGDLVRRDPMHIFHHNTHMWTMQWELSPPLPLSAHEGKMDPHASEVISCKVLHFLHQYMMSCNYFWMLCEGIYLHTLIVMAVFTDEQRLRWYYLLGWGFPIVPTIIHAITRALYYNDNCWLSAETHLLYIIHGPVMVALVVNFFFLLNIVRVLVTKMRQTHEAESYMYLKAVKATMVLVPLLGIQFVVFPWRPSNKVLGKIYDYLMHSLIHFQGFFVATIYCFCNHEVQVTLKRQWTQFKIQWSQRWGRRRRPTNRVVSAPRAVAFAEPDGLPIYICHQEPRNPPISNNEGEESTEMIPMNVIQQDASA
UniProt P11362, sequence (whole entry, looked up): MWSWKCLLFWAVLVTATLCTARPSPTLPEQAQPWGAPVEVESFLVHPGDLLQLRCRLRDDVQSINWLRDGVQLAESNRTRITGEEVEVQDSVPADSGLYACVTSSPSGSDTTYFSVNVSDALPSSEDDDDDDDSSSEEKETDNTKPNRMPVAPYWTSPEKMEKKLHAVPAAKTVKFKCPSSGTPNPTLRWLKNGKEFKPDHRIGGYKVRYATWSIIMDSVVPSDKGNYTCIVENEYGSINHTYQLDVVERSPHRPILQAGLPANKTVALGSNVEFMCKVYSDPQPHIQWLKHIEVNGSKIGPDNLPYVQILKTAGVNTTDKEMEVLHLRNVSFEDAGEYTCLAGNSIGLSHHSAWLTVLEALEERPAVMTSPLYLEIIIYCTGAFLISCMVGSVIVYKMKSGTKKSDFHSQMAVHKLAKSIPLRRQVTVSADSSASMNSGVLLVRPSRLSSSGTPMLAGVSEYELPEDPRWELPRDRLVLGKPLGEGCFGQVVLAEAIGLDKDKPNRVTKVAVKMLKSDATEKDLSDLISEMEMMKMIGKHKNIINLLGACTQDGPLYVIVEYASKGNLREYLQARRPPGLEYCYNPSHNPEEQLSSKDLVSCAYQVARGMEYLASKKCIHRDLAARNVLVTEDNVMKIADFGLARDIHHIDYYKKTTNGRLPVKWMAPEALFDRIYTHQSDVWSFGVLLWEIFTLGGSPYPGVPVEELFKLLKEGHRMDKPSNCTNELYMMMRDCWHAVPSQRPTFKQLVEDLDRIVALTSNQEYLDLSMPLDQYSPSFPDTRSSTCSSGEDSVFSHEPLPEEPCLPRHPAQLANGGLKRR
UniProt Q9UL62, sequence (whole entry, looked up): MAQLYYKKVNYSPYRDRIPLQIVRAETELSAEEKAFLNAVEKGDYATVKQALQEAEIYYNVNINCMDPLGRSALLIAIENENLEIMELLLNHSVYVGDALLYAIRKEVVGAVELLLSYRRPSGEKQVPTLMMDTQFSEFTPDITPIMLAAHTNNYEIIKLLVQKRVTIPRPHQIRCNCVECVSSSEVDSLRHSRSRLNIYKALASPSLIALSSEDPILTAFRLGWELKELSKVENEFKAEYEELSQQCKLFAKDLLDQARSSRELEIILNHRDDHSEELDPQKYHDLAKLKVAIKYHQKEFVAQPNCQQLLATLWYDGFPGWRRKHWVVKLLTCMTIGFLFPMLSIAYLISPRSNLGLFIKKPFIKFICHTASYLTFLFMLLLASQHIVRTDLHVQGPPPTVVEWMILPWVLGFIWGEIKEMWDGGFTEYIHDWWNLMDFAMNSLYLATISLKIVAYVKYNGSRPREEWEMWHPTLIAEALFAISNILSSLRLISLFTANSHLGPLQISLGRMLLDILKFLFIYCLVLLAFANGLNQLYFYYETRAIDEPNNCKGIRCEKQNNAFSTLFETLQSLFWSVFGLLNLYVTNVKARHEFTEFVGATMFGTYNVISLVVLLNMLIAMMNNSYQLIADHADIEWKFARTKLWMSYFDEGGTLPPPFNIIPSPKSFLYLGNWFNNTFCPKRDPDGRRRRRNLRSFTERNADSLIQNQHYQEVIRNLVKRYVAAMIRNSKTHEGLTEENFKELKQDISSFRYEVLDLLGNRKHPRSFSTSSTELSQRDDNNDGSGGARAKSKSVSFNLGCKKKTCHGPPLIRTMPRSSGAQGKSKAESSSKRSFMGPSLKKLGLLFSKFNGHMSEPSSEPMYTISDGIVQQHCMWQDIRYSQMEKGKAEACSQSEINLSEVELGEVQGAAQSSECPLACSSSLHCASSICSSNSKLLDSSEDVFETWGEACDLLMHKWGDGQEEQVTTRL
UniProt O95838, sequence (whole entry, looked up): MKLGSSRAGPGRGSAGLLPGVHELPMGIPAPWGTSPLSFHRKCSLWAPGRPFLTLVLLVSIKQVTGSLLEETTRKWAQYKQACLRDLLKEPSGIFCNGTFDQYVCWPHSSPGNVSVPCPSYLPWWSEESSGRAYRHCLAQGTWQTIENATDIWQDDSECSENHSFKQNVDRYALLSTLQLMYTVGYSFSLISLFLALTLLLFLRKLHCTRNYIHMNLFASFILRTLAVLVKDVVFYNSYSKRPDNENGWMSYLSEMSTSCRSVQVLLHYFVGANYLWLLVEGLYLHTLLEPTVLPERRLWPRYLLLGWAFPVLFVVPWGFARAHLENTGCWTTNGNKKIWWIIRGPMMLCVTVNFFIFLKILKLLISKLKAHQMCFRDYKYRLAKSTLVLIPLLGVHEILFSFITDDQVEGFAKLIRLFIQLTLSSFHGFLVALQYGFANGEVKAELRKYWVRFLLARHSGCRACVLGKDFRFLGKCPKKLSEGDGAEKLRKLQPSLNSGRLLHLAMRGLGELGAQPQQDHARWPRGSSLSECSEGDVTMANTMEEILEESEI
UniProt Q13526, sequence (whole entry, looked up): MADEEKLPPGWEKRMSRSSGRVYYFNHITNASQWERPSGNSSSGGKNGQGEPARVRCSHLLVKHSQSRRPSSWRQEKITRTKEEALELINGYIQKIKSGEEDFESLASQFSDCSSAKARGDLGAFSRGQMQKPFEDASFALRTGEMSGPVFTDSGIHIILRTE
UniProt Q14011, sequence (whole entry, looked up): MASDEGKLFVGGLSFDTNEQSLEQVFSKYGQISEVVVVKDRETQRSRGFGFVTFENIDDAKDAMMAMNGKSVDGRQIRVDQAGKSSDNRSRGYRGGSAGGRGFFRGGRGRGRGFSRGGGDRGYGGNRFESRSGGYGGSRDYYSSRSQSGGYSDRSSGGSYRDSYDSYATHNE
UniProt Q9WUP0, sequence (whole entry, unmodified, looked up): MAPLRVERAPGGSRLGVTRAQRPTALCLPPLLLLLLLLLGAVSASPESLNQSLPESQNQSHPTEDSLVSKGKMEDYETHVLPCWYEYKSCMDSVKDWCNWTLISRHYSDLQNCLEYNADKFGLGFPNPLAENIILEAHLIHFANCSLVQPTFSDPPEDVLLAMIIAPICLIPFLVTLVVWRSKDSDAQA

SMILES | target | test | system | setting | scale | EC50 [µM]
CSCC[C@H](NC(=O)[C@H](CC(C)C)NC(=O)[C@H](Cc1cnc[nH]1)NC(=O)CNC(=O)[C@@H](NC(=O)[C@H](C)NC(=O)[C@H](Cc1c[nH]c2ccccc12)NC(=O)[C@H](Cc1cnc[nH]1)NC(=O)[C@H](CC(N)=O)NC(=O)CN)C(C)C)C(N)=O | GRPR | inositol phosphate, agonist |  |  |  | 0.00151
C#CCC(=O)O | FFAR2 | agonist |  |  |  | > 10000
CC(C)C[C@H](NC(=O)CNC(=O)[C@H](CCC(N)=O)NC(=O)[C@H](CC(C)C)NC(=O)[C@H](CC(C)C)NC(=O)[C@H](CCCNC(=N)N)NC(=O)[C@H](CCC(N)=O)NC(=O)[C@H](CC(C)C)NC(=O)[C@H](CCCNC(=N)N)NC(=O)[C@H](C)NC(=O)[C@H](CO)NC(=O)[C@H](CC(=O)O)NC(=O)[C@H](CCC(N)=O)NC(=O)[C@H](CC(C)C)NC(=O)[C@H](CCCNC(=N)N)NC(=O)[C@H](CO)NC(=O)[C@H](CC(C)C)NC(=O)[C@H](CCC(=O)O)NC(=O)[C@H](CO)NC(=O)[C@@H](NC(=O)[C@H](Cc1ccccc1)NC(=O)[C@@H](NC(=O)CNC(=O)[C@H](C)NC(=O)[C@H](CO)NC(=O)[C@@H](N)Cc1c[nH]cn1)[C@@H](C)O)[C@@H](C)O)C(=O)N[C@H](C(N)=O)C(C)C | Sctr | cAMP production, agonist | CHO-SecR | 30 min, 37 °C, added: 1 mM IBMX |  | 0.0039 ± 0.0006
CC(=O)Oc1ccccc1C(=O)Nc1ccccc1Sc1ncnc2scc(-c3ccccc3)c12 | CIRBP (Homo sapiens, UniProt Q14011) | thermal stabilisation, cellular thermal shift | LOX-IM-VI overexpressing GFP-CIRBP | 3 h, 57 °C |  | 4.7
O=S1(=O)c2ccccc2-c2cccc(-n3cc[n+](Cc4ccccc4)c3)c21 | PIN1 (Homo sapiens, UniProt Q13526) |  |  |  |  | ~5
CC(C)C[C@H](NC(=O)CNC(=O)[C@H](CCC(N)=O)NC(=O)[C@H](CC(C)C)NC(=O)[C@H](CC(C)C)NC(=O)[C@H](C)NC(=O)[C@H](CCC(N)=O)NC(=O)[C@H](CC(C)C)NC(=O)[C@H](CCCNC(=N)N)NC(=O)[C@H](C)NC(=O)[C@H](CO)NC(=O)[C@H](CC(=O)O)NC(=O)[C@H](CCC(N)=O)NC(=O)[C@H](CC(C)C)NC(=O)[C@H](CCCNC(=N)N)NC(=O)[C@H](CO)NC(=O)[C@H](CC(C)C)NC(=O)[C@H](CCC(=O)O)NC(=O)[C@H](CO)NC(=O)[C@@H](NC(=O)[C@H](Cc1ccccc1)NC(=O)[C@@H](NC(=O)CNC(=O)[C@H](CC(=O)O)NC(=O)[C@H](CO)NC(=O)[C@@H](N)Cc1c[nH]cn1)[C@@H](C)O)[C@@H](C)O)C(=O)N[C@H](C(N)=O)C(C)C | Sctr | cAMP production, agonist | CHO-SecR | 30 min, 37 °C, added: 1 mM IBMX |  | 0.0002 ± 3e-05
CC(C)CN(CC(C)C)C(=O)/C=C/C=C/c1ccc2c(c1)OCO2 | Gabra3/Gabrb2 (Rattus norvegicus, UniProt P20236+P63138) | GABA current potentiation, positive modulator, two-electrode voltage clamp | Xenopus oocytes expressing α3β2 | added: GABA EC3-7 |  | 22.2 ± 12.1
CC(C)C[C@H](NC(=O)CNC(=O)[C@H](C)NC(=O)[C@H](CC(C)C)NC(=O)[C@H](CCCNC(=N)N)NC(=O)[C@H](Cc1cnc[nH]1)NC(=O)[C@@H](NC(=O)[C@@H](NC(=O)[C@@H]1CSSC[C@H](NC(=O)[C@H](C)N)C(=O)N[C@@H](CC(=O)O)C(=O)N[C@@H]([C@@H](C)O)C(=O)N[C@@H](C)C(=O)N[C@@H]([C@@H](C)O)C(=O)N1)C(C)C)[C@@H](C)O)C(=O)N[C@@H](CC(C)C)C(=O)N[C@@H](CO)C(=O)N[C@@H](CCCNC(=N)N)C(=O)N[C@@H](CO)C(=O)NCC(=O)NCC(=O)N[C@H](C(=O)N[C@H](C(=O)N[C@@H](CCCCN)C(=O)N[C@@H](CC(N)=O)C(=O)N[C@@H](CC(N)=O)C(=O)N[C@@H](Cc1ccccc1)C(=O)N[C@H](C(=O)N1CCC[C@H]1C(=O)N[C@H](C(=O)N[C@@H](CC(N)=O)C(=O)N[C@H](C(=O)NCC(=O)N[C@@H](CO)C(=O)N[C@@H](CCCCN)C(=O)N[C@@H](C)C(=O)N[C@@H](Cc1ccccc1)C(N)=O)C(C)C)[C@@H](C)O)C(C)C)C(C)C)C(C)C | Calcr/Ramp2 (Mus musculus, UniProt Q60755+Q9WUP0, P10T) | cAMP production, agonist | COS-7, transfected | 15 min, 37 °C, added: IBMX 1 mM |  | 0.0316
O=P(O)(O)O[C@@H]1[C@@H](O)[C@H](O)[C@H](O)[C@H](O)[C@H]1OP(=O)(O)O | Itpr1 (Rattus norvegicus, UniProt P29994, del318-332/R568Q) | Ca2+ release, agonist | permeabilized DT40 cells |  |  | 8.05
COc1ccc(-c2cc(C(F)(F)F)nc(S(=O)(=O)CCCC(=O)Nc3ccc(F)cc3F)n2)cc1OC | AVPR2 | cAMP accumulation, positive allosteric modulator | CHO-K1 overexpressing AVPR2 | added: vasopressin at EC20 |  | 19 ± 17
CCC(=O)Nc1cccc(CN2C(=O)N(c3c(Cl)c(OC)cc(OC)c3Cl)Cc3cnc(NCCCCN(CC)CC)nc32)c1 | FGFR1/Transcription factor ETV6 (Homo sapiens, UniProt P11362+P41212) | cell proliferation, MTT | Ba/F3 | 48 h |  | 0.34
CSCC[C@H](NC(=O)[C@H](Cc1ccccc1)NC(=O)[C@H](Cc1c[nH]cn1)NC(=O)CNC(=O)[C@@H](NC(=O)[C@H](C)NC(=O)[C@H](Cc1c[nH]c2ccccc12)NC(=O)[C@H](CC(C)C)NC(=O)[C@@H]1CCC(=O)N1)[C@@H](C)O)C(N)=O | GRPR | inositol phosphate generation, agonist | BALB/3T3 transfected with human GRPR | 45 min, 37 °C | relative to: 1 µM GRP | 0.00977 ± 0.00029
CC[C@H](C)[C@H](NC(=O)[C@H](Cc1ccccc1)NC(=O)[C@H](CC(=O)O)NC(=O)[C@H](CCCNC(=N)N)NC(=O)[C@H](C)NC(=O)[C@H](C)NC(=O)[C@H](CC(C)C)NC(=O)[C@H](CC(N)=O)NC(=O)[C@H](CC(=O)O)NC(=O)[C@H](CC(C)C)NC(=O)[C@@H](NC(=O)[C@@H](NC(=O)[C@H](CC(N)=O)NC(=O)[C@H](CCSC)NC(=O)[C@H](CCC(=O)O)NC(=O)[C@H](CC(=O)O)NC(=O)[C@H](CO)NC(=O)[C@H](Cc1ccccc1)NC(=O)[C@H](CO)NC(=O)[C@H](C)NC(=O)[C@H](CC(=O)O)NC(=O)[C@H](C)NC(=O)[C@@H](N)Cc1c[nH]cn1)[C@@H](C)O)[C@@H](C)CC)C(=O)N[C@@H](CC(N)=O)C(=O)N[C@@H](Cc1c[nH]c2ccccc12)C(=O)N[C@@H](CC(C)C)C(=O)N[C@H](C(=O)N[C@@H](CCC(N)=O)C(=O)N[C@H](C(=O)N[C@@H](CCCCN)C(=O)N[C@H](C(=O)N[C@H](C(=O)N[C@@H](CC(=O)O)C(N)=O)[C@@H](C)O)[C@@H](C)CC)[C@@H](C)O)[C@@H](C)CC | GLP2R (Homo sapiens, UniProt O95838) | agonist |  |  |  | 0.00016
CSCC[C@H](NC(=O)[C@H](CO)NC(=O)[C@H](Cc1ccc(O)cc1)NC(=O)[C@@H](N)CO)C(=O)N[C@@H](CCC(=O)O)C(=O)N[C@@H](Cc1c[nH]cn1)C(=O)N[C@@H](Cc1ccccc1)C(=O)N[C@@H](CCCNC(=N)N)C(=O)N[C@@H](Cc1c[nH]c2ccccc12)C(=O)NCC(=O)O | GPR139 (Homo sapiens, UniProt Q6DWJ6) | calcium mobilisation, agonist, Fluo-4 | CHO transfected | mean of triplicates |  | 0.318
CC(C)C[C@H](NC(=O)CNC(=O)[C@H](CCC(N)=O)NC(=O)[C@H](CC(C)C)NC(=O)[C@H](CC(C)C)NC(=O)[C@H](CCCNC(=N)N)NC(=O)[C@H](CCC(N)=O)NC(=O)[C@H](CC(C)C)NC(=O)[C@H](CCCNC(=N)N)NC(=O)[C@H](C)NC(=O)[C@H](CO)NC(=O)[C@H](CC(=O)O)NC(=O)[C@H](CCC(N)=O)NC(=O)[C@H](CC(C)C)NC(=O)[C@H](CCCNC(=N)N)NC(=O)[C@H](CO)NC(=O)[C@H](CC(C)C)NC(=O)[C@H](CCC(=O)O)NC(=O)[C@H](CO)NC(=O)[C@@H](NC(=O)[C@H](Cc1ccccc1)NC(=O)[C@@H](NC(=O)CNC(=O)[C@H](CC(=O)O)NC(=O)[C@H](CO)NC(=O)[C@@H](N)Cc1c[nH]cn1)[C@@H](C)O)[C@@H](C)O)C(=O)N[C@@H](C)C(N)=O | Sctr | cAMP production, agonist | CHO-SecR | 30 min, 37 °C, added: 1 mM IBMX |  | 0.0005 ± 0.0002
CC(=O)O | FFAR2 | agonist |  |  |  | 37.2
CC(C)C[C@H](NC(=O)CNC(=O)[C@H](CCC(N)=O)NC(=O)[C@H](CC(C)C)NC(=O)[C@H](CC(C)C)NC(=O)[C@H](CCCNC(=N)N)NC(=O)[C@H](CCC(N)=O)NC(=O)[C@H](CC(C)C)NC(=O)[C@H](CCCNC(=N)N)NC(=O)[C@H](C)NC(=O)[C@H](CO)NC(=O)[C@H](CC(=O)O)NC(=O)[C@H](CCC(N)=O)NC(=O)[C@H](CC(C)C)NC(=O)[C@H](CCCNC(=N)N)NC(=O)[C@H](CO)NC(=O)[C@H](CC(C)C)NC(=O)[C@H](CCC(=O)O)NC(=O)[C@H](CO)NC(=O)[C@@H](NC(=O)[C@H](Cc1ccccc1)NC(=O)[C@@H](NC(=O)CNC(=O)[C@H](CC(=O)O)NC(=O)[C@H](C)NC(=O)[C@@H](N)Cc1c[nH]cn1)[C@@H](C)O)[C@@H](C)O)C(=O)N[C@H](C(N)=O)C(C)C | Sctr | cAMP production, agonist | CHO-SecR | 30 min, 37 °C, added: 1 mM IBMX |  | 0.0003 ± 0.0001
NCCCC[C@H](NC(=O)[C@@H]1CCCN1C(=O)[C@@H]1CSSCCC(=O)N[C@@H](Cc2ccc(O)cc2)C(=O)N[C@@H](Cc2ccccc2)C(=O)N[C@@H](CCCC(N)=O)C(=O)N[C@@H](CC(N)=O)C(=O)N1)C(=O)NCC(N)=O | AVPR2 | calcium signal, agonist |  |  |  | 0.00026
C#CCn1c(Oc2cccc(C3(C(F)(F)F)N=N3)c2)nc2c1c(=O)n(CCCO)c(=O)n2C | TRPC5 (Homo sapiens, UniProt Q9UL62) | calcium signal, agonist, fluorescence |  |  |  | 0.019

For quick reference, copied from above:
SMILES | target | test | system | setting | scale | EC50 [µM]
COc1ccc(-c2cc(C(F)(F)F)nc(S(=O)(=O)CCCC(=O)Nc3ccc(F)cc3F)n2)cc1OC | AVPR2 | cAMP accumulation, positive allosteric modulator | CHO-K1 overexpressing AVPR2 | added: vasopressin at EC20 |  | 19 ± 17
